Assay results gathered from unrelated publications.
Protocols differ between the studies behind these lines. “And” joins repeats or separate records; there may be more than shown. Numbers after ± are the reported error.
Nicotinic acetylcholine receptor alpha1/beta1/epsilon/delta: Nicotinic acetylcholine receptor alpha1/beta1/epsilon/delta (Mus musculus, UniProt P02716+P04756+P09690+P20782)
UniProt P42866, sequence (whole entry, looked up): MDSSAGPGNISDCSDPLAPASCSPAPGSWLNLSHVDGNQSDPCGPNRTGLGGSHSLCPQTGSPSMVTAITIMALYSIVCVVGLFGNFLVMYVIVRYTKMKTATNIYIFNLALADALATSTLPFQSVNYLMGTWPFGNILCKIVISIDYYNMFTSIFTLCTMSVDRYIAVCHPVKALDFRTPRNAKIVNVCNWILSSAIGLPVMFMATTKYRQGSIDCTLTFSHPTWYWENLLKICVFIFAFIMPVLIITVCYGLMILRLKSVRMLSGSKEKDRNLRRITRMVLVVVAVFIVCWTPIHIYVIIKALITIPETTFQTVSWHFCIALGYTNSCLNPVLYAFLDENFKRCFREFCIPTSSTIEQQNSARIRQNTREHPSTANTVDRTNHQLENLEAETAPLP
UniProt Q62351, sequence (whole entry, looked up): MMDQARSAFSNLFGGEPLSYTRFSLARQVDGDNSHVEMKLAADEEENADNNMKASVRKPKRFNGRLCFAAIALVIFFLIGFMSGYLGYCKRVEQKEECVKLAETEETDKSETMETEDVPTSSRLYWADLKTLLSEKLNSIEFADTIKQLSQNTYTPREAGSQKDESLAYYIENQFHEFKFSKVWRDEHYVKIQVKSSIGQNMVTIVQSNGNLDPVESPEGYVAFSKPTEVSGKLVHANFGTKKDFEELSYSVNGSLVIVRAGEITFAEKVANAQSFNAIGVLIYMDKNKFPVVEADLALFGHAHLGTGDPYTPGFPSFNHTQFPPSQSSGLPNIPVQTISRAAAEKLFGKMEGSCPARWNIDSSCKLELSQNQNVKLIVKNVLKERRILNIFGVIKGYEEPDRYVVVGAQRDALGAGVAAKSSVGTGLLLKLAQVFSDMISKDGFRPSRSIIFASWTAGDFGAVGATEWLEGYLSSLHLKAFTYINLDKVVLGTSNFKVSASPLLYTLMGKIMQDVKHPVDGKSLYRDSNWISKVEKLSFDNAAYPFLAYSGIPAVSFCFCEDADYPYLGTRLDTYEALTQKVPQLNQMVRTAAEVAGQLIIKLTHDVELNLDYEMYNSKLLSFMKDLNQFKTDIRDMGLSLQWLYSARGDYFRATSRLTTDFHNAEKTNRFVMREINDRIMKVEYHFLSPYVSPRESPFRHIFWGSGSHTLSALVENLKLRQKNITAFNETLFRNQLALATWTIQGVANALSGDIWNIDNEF
UniProt P04756, sequence (whole entry, looked up): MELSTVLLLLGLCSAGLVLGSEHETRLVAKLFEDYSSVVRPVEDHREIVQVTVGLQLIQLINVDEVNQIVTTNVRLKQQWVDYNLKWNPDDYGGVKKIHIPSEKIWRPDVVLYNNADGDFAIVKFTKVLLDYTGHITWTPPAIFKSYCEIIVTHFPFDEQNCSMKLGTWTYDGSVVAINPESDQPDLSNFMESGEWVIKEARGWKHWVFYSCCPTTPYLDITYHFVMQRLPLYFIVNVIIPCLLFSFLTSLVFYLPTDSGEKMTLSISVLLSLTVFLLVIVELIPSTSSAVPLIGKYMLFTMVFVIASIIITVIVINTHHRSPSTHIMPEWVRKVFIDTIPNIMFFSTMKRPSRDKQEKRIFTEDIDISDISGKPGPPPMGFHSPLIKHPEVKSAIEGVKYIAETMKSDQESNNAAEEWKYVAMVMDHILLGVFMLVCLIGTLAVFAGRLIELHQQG
UniProt P20782, sequence (whole entry, looked up): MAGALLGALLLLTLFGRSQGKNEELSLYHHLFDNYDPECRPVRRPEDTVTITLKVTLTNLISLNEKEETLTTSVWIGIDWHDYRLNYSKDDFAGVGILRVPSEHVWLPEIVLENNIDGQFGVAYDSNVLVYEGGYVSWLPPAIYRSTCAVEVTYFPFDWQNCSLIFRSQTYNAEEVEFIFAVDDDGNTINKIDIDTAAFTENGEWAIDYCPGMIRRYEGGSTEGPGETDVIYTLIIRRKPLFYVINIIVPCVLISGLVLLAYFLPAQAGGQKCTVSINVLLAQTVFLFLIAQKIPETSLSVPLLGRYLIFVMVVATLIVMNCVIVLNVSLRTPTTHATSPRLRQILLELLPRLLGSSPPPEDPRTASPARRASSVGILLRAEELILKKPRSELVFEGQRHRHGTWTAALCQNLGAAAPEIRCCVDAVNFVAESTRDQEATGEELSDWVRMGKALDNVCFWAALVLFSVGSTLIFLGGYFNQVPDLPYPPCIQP
UniProt P02716, sequence (whole entry, looked up): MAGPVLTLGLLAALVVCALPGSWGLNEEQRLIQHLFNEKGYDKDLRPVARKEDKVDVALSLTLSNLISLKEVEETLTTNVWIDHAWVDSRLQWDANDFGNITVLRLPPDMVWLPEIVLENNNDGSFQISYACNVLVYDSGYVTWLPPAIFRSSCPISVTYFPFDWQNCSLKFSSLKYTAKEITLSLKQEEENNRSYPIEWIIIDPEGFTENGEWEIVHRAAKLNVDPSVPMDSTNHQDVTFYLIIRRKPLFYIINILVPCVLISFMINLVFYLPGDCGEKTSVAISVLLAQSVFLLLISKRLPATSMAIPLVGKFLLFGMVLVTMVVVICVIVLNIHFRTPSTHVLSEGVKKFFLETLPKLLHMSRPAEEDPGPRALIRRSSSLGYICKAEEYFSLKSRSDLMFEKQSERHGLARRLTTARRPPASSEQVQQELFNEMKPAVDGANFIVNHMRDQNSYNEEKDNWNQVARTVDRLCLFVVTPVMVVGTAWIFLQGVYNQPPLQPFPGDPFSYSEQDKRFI
UniProt P09690, sequence (whole entry, looked up): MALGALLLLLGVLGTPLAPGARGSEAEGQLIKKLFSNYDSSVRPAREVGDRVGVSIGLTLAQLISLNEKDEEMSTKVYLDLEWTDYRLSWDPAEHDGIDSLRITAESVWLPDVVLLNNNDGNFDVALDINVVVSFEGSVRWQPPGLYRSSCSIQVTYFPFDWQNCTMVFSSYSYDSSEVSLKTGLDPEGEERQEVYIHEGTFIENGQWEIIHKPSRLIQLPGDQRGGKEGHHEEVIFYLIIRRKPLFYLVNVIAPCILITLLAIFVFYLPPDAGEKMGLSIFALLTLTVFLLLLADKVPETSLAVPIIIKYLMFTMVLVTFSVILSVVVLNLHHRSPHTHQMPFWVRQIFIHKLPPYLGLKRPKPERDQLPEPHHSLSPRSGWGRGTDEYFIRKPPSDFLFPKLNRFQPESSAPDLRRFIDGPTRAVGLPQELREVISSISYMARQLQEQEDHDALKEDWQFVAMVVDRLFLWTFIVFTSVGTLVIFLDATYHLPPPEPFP
UniProt P57059, sequence (whole entry, looked up): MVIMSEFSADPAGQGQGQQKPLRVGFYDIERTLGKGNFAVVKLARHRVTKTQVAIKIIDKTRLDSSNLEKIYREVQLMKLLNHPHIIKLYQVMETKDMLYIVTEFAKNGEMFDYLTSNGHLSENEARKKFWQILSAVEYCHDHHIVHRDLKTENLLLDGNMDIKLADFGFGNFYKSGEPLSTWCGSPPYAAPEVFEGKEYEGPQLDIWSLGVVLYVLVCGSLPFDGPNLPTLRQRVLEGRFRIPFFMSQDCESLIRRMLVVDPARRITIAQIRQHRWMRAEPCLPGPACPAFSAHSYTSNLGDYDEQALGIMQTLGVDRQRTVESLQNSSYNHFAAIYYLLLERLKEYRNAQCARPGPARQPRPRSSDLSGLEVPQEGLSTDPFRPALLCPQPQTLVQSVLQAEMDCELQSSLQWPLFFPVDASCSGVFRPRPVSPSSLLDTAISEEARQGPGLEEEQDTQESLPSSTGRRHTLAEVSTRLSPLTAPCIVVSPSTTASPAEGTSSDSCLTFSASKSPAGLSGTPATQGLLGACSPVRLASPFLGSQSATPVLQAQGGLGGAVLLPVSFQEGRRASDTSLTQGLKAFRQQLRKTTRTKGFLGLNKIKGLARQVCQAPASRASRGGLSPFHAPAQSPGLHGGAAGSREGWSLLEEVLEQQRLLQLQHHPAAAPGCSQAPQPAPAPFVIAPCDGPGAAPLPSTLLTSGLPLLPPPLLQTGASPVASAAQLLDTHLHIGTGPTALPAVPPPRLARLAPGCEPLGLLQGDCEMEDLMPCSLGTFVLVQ
UniProt P77488, sequence (whole entry, unmodified, looked up): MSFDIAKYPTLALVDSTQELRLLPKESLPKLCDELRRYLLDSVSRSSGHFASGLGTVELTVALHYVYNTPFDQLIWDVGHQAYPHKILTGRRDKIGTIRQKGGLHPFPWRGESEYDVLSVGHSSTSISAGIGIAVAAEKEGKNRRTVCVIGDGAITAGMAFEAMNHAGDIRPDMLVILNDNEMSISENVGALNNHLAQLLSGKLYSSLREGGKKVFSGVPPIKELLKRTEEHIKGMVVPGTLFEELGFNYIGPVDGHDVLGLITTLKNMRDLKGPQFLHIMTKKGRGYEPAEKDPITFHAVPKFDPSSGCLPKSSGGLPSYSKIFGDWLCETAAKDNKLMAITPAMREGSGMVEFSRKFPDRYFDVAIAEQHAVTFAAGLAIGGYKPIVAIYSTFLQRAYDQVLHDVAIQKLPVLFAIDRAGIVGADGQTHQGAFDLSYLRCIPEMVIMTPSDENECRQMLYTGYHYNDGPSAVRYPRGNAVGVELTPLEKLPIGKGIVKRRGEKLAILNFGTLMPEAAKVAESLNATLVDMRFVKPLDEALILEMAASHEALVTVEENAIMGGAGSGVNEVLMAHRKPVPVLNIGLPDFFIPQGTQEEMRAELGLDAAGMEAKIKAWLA
UniProt P28074, sequence (whole entry, looked up): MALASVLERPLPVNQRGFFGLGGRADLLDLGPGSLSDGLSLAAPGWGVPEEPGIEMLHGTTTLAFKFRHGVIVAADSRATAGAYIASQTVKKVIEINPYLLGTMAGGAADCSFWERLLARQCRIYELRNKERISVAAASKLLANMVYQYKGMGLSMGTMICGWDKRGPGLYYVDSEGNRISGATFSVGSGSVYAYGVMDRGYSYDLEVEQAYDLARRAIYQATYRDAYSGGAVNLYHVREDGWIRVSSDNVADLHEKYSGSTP
UniProt P63208, sequence (whole entry, looked up): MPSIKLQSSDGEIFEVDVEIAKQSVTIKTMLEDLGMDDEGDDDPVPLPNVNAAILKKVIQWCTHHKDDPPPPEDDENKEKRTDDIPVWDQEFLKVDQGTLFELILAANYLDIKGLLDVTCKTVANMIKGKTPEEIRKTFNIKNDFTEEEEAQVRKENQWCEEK

Compound	target	assay	test system	setting	how to read	measurement	value
CN1CCN(c2cc(-c3ccncc3)c(-c3ccc4ccccc4c3)nn2)CC1	CCR9 (Homo sapiens, UniProt P51686)	agonist, FLIPR	–	12.5 µM	–	activation	-0.1%
COc1ccc(F)cc1C(=O)NCc1ccc(-c2nn([C@@H](C)C(F)(F)F)c(N)c2C(N)=O)cc1	BTK (Homo sapiens, UniProt Q06187)	binding	–	–	–	residence time	96 min
CC(=O)NC[C@H]1[C@H](O)[C@H](O)[C@@H]2[C@H](O)C[C@@H](CO)N21	human placental β-N-acetylglucosaminidase	–	–	0.00161 µM, run 2, together with: p-nitrophenyl GlcNAc	–	inhibition	22.4%
C[N+]1(C)CCN(c2ccc(C#N)cc2)CC1.[I-]	Nicotinic acetylcholine receptor alpha1/beta1/epsilon/delta	ion current, inhibitor, two-electrode voltage clamp	Xenopus oocytes	30 µM, after co-application, unit not given, together with: ACh 30 µM	baseline: ACh alone	ACh response	0.594 ± 0.222
COc1ccc(N2C(=O)N(c3c(C)cccc3Cl)Cc3cnc(Nc4ccc(C5CCN(C)CC5)cc4OC)nc32)nc1	MAP4K1 (Homo sapiens, UniProt Q92918)	kinase activity	–	0.5 µM	–	inhibition	50%
COC(=O)[C@@]1(O)C[C@H]2O[C@]1(C)n1c3ccccc3c3c4c(c5c6ccccc6n2c5c31)C(=O)NC4	MAPK3 (Homo sapiens, UniProt P27361)	ADP-Glo	–	12.1 µM, together with: substrate MBP	–	remaining activity	106%
CNC(C)Cc1ccc2n[se]nc2c1 (centres unmarked)	HTR2B (Homo sapiens, UniProt P41595)	agonist	–	–	baseline: 5-HT	Emax	50.6 ± 6.5%
CCCCCCCCC(=O)O	Albumin (ALB, Homo sapiens, UniProt P02768)	ITC	–	25 °C, first binding site, together with: HSA 20 µM	–	association constant	1.3e+06 M⁻¹
CN(C(=O)n1cnc(-c2ccc[n+]([O-])c2)c1)C1CCCCC1	CCR1 (Homo sapiens, UniProt P32246)	radioligand binding, inhibitor	–	10 µM	–	inhibition	-3%
O=C(c1ccc(Cl)cc1)N1CCN2C(=O)N(OC(=O)N3CCOc4ccccc43)C(=O)C2C1 (centres unmarked)	NCEH1 (Homo sapiens, UniProt Q6PIU2)	enzyme activity, inhibitor, MS-based ABPP	SW-620 in situ	10 µM, 2 h, 37 °C	baseline: compound over DMSO, lower = stronger inhibition	median ratio	1.03
C[C@@H](NC(=O)[C@@H](N)Cc1ccc(O)cc1)C(=O)NCC(=O)N(C)[C@@H](Cc1ccccc1)C(=O)NCCO	Oprm1 (Mus musculus, UniProt P42866)	agonist	mouse spinal cord membranes	562 nM	baseline: baseline	GTPγS binding	31.6% and 42.6% and 28.9% and 25.8% and 29.5% and 27% and 39.9% and 33.2%
O=c1oc(-c2cccc([N+](=O)[O-])c2)ns1	PSMB5 (Homo sapiens, UniProt P28074)	enzyme inactivation, inhibitor	human PA28-activated proteasome	–	–	kobs/[I]	10.3 M⁻¹ s⁻¹
CC[C@@H](C)[C@@H](NC(=O)[C@@H](Cc1ccc(O)cc1)NC(=O)[C@H]1CCCN1C(=O)[C@@H](CCCNC(=N)N)NC(=O)[C@H](N)Cc1c[nH]cn1)C(=O)N[C@H](C)C(=O)N[C@H](Cc1c[nH]cn1)C(=O)N[C@H](CCCNC(=N)N)C(=O)N[C@H](CCCCNC(=O)c1cccc(S(=O)(=O)F)c1)C(=O)N[C@H](Cc1ccc(O)cc1)C(=O)N[C@H](CO)C(=O)N[C@H](Cc1ccccc1)C(N)=O	Transferrin receptor protein 1 (Tfrc, Mus musculus, UniProt Q62351)	flow cytometry	RAW264.7	6 h, pH 7.4, unit not given	baseline: 0 h	surface expression	0.904 and 0.911
COc1cc(N)c(Cl)cc1C(=O)NC1CN2CCC1CC2 (centres unmarked)	Probable G-protein coupled receptor 173 (GPR173, Homo sapiens, UniProt Q9NS66)	β-arrestin recruitment, TANGO luminescence, refers to: GPR173	–	concentration not given	baseline: basal luminescence	log2 fold change	0.256
Clc1ccc(COc2ccccc2CNCc2cccnc2)cc1	aacA-aphD, AAC(6')-Ie domain (Staphylococcus aureus, UniProt P0A0C1)	neomycin acetylation, inhibitor	–	together with: neomycin	–	highest concentration without inhibition	> 200 µM
O=C(Nc1cnccc1Cl)N1CCN(Cc2ccc3c(c2)OC(F)(F)O3)CC1	AMPA receptor, rat	binding	–	50 µM, together with: [3H]AMPA	–	inhibition	14%
CN(C(=O)n1cnc(-c2ccc[n+]([O-])c2)c1)C1CCCCC1	Lysosomal phospholipase A and acyltransferase (Pla2g15, Rattus norvegicus, UniProt Q675A5)	enzyme activity, ABPP	rat, brain	oral, 100 mg/kg/day, 7 days	baseline: vehicle	fold change	-2.4
COc1cc(Nc2ncc(F)c(Nc3ccc4c(n3)NC(=O)C(C)(C)O4)n2)cc(OC)c1OC	SIK1 (Homo sapiens, UniProt P57059)	kinase binding, KINOMEscan	–	10 µM	–	inhibition	100%
O=C(Nc1cccnn1)N1CCC(=Cc2cccc(Oc3ccc(C(F)(F)F)cn3)c2)CC1	HIPK2 (Homo sapiens, UniProt Q9H2X6)	kinase activity, inhibitor	–	50 µM, together with: myelin basic protein substrate	–	inhibition	-9%
CSc1ccc(C(=O)CCl)cc1	UCHL1 (Homo sapiens, UniProt P09936)	covalent, intact protein LC-MS	–	12.5 µM	–	labelling	15.1%
Cc1ncsc1-c1ccc([C@H](CC(=O)N2CCN(c3ccc(C#Cc4ccc(C(=O)N5CCC(n6cc(-c7ccc8c(c7)CCN8C(=O)Cc7cccc(OC(F)(F)F)c7)c7c(N)ncnc76)CC5)cc4)cn3)CC2)NC(=O)[C@@H]2C[C@@H](O)CN2C(=O)[C@@H](NC(=O)C2(F)CC2)C(C)(C)C)cc1	RIPK1 (Homo sapiens, UniProt Q13546)	degrader, Western blot	Jurkat cells	100 nM	–	time to complete degradation	≤ 2 h
C[C@H]1CN(c2n[nH]c3nc(N[C@H]4CC[C@H](NS(=O)(=O)CCC(F)(F)F)CC4)ncc23)CCO1	Prohibitin 1 (PHB1, Homo sapiens, UniProt P35232)	competitor, Kinobeads competition	human cell extract	20 µM	baseline: vehicle	relative abundance	1.14
CC(C)(O/N=C(\C(=O)N[C@@H]1C(=O)N2C(C(=O)[O-])=C(C[N+]3(CCNC(=O)c4ccc(O)c(O)c4Cl)CCCC3)CS[C@H]12)c1csc(N)n1)C(=O)O	Metallo-beta-lactamase type 2 (Serratia marcescens, UniProt P52699)	substrate, UV spectrophotometry	–	pH 7.5, 30 °C	–	Km	302 µM
[2H]c1c([2H])c([C@]2([2H])CCCN2C(=O)C(C)(C)Oc2ccc3cn[nH]c3c2)c([2H])c([2H])c1C([2H])([2H])[2H]	TRPM6 (Homo sapiens, UniProt Q9BX84)	KINOMEscan	–	1 µM	baseline: DMSO control	remaining binding	100%
CC(=O)N[C@H](C(=O)N1C[C@H](O)C[C@H]1C(=O)NCc1ccc(-c2scnc2C)cc1)C(C)(C)SCCCCCCNC(=O)C[C@@H]1N=C(c2ccc(Cl)cc2)c2c(sc(C)c2C)-n2c(C)nnc21	Bromodomain-containing protein 4, BD2 (BRD4, Homo sapiens, UniProt O60885, A384K/E383V/K378Q)	ITC	–	concentration not given, 25 °C	–	binding stoichiometry	0.69 ± 0.01
CC(C)[C@@H](O)CC[C@@H](C)[C@H]1CC[C@H]2[C@@H]3CC=C4C[C@@H](O)CC[C@]4(C)[C@H]3CC[C@]12C	Glutamate NMDA receptor; GRIN1/GRIN2B (GRIN1/GRIN2B, Homo sapiens, UniProt Q05586+Q13224, P553A)	positive allosteric modulator, two-electrode voltage clamp	Xenopus oocytes expressing GluN2B-P553A	10 µM, 0.02% cremophor, together with: 100 µM glutamate and glycine	baseline: without compound	current response	180 ± 6.5%
C[N+]1(C)CCN(c2ccc(Cl)cc2)CC1.[I-]	Nicotinic acetylcholine receptor alpha1/beta1/epsilon/delta	ion current, inhibitor, two-electrode voltage clamp	Xenopus oocytes	30 µM, after co-application, unit not given, together with: ACh 30 µM	baseline: ACh alone	ACh response	0.664 ± 0.204
CCOC(=O)C(C)Oc1ccc(Oc2cnc3cc(Cl)ccc3n2)cc1 (centres unmarked)	S-phase kinase-associated protein 1 (SKP1, Homo sapiens, UniProt P63208)	binding, affinity selection mass spectrometry	–	100 nM, pooled screen	baseline: other proteins	fold change	14.4
CCCCOP(=O)(O)C(C)=O	dxs (Escherichia coli, UniProt P77488, R99A)	inhibitor, DXPS-IspC coupled	–	–	baseline: wild-type enzyme	IC50 fold increase	11 fold

Some of these lines once more:
Compound	target	assay	test system	setting	how to read	measurement	value
CC(=O)NC[C@H]1[C@H](O)[C@H](O)[C@@H]2[C@H](O)C[C@@H](CO)N21	human placental β-N-acetylglucosaminidase	–	–	0.00161 µM, run 2, together with: p-nitrophenyl GlcNAc	–	inhibition	22.4%
C[N+]1(C)CCN(c2ccc(C#N)cc2)CC1.[I-]	Nicotinic acetylcholine receptor alpha1/beta1/epsilon/delta	ion current, inhibitor, two-electrode voltage clamp	Xenopus oocytes	30 µM, after co-application, unit not given, together with: ACh 30 µM	baseline: ACh alone	ACh response	0.594 ± 0.222
COc1ccc(N2C(=O)N(c3c(C)cccc3Cl)Cc3cnc(Nc4ccc(C5CCN(C)CC5)cc4OC)nc32)nc1	MAP4K1 (Homo sapiens, UniProt Q92918)	kinase activity	–	0.5 µM	–	inhibition	50%
COC(=O)[C@@]1(O)C[C@H]2O[C@]1(C)n1c3ccccc3c3c4c(c5c6ccccc6n2c5c31)C(=O)NC4	MAPK3 (Homo sapiens, UniProt P27361)	ADP-Glo	–	12.1 µM, together with: substrate MBP	–	remaining activity	106%
